Measured values collected from several papers.
Every numbered part comes from another study and shows a few of its results, in no order.

Sample 1
Target: RNA binding protein fox-1 homolog 2, RRM domain, GST-SBP tag (RBFOX2, Homo sapiens, UniProt O43251-10, residues 100-194)
Method: RNA Bind-n-Seq
Molecule type: RNA
Medium: in vitro
Tested at: 365 nM
Notes: natural RNA segment, single round, ends assumed
Relative to: no-protein control
Reading: higher = stronger binding
All sequences stand within: GGGAGUUCUACAGUCCGACGAUC … UGGAAUUCUCGGGUGCCAA
Target sequence (chain): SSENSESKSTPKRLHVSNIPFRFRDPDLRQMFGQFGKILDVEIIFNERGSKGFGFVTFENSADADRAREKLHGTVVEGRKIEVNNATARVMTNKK
Under “RBNS enrichment (R)”, `AGAGAGCUGAAGCCAUCUGGUUCUUAGAUUCCUCUCCCAGUCCUCUUUCCCAUUGUUCUGUUGCUCCACCUUAUUGUCUCAAGGCCGUAAUCUCAUCAGGUUGGGACAUU` is recorded as 0.446.
Under “RBNS enrichment (R)”, `CCGGCCGCUCCACCAGCAUCACCUGCCUGUUAGGAGAAGCUGCAUCCAGAGGCAAACGGAGGCAAAGCUGGCUCACCUUCCGCACGCGGAUUAAUUUGCAUCUGAAAUAG` is recorded as 0.541.
`UGUCAUUUGGGGGAUGGAAUGAACAGUCACUGUUCUAUAGCAUCCUCCUGUGCUCUUACCUAAGGAAUCUAAAUUGUCCUAGCCUUCCAUUGCUAUGCACUGAAUGAGGA`: “RBNS enrichment (R)” 0.528.
For `UUAUACGAAUGUUUUCUACCAGUGUGCUUGGGUUUGCCAUGAUGCGAGGCUGAGUUGCUGUAGCGUCUUGAUUCUCUCCCUGGGUCUGCGUUCCCUCCCCUGGGCCUGAC`, “RBNS enrichment (R)” read 0.583.
`CCAAUUUGAAUUCAGGAUUACAGUGCUCCUUUCAUUCUUUCAAACAGAUAACAUAAAAGUUCUGUUACCCUCAUUCUAUACAACCUAUGGAUUUCAUGUGUUACAAUAUC` — result for “RBNS enrichment (R)”: 0.331.
Under “RBNS enrichment (R)”, `CUCUGAACUAAUUCCUAAAGAGAAGCAACAAUAUGUGUAUGUGGGGGGGUUGAUCACAUACAUGUACCAUCGUGUGAUCAUAGUACUAUGAUUUGCUUUUGACGUCUGUC` is recorded as 0.733.
For `UCACCAAUUUGUACAUUAUUUGUUGUCCUUUACUACUGUAAACAGUAAAUAUAGUUUGGUAUUCUGUUCUUGGCUUCUACUAAACACUGCAUUUGAAGGUUGGGGCAUAC`, “RBNS enrichment (R)” read 0.688.
`UGUCGGCUGGAAUCCCUCAUGAGUCAAGUACUGUACCUCCCUGGCACAUGAAACUCUGGGAUCCAGUGAAGGGUCCUGCUUGGUCUUGUUUUCAGAGUCUGUAACAUUGA` — result for “RBNS enrichment (R)”: 0.495.
`AUAUGCGGAGAGUAAAUGCAAAAAUGCUAAGAGUAAUGCAUCAUGUAUUGAAUAUUAAGUGUCACUGAAGCAAUGUUUGUGUUGACUAGAAACGUAAGAUGACUUGUGUA` — result for “RBNS enrichment (R)”: 0.646.

Sample 2
Target: Max-binding protein MNT, bHLH-zipper, MAX partner unstated (MNT, Homo sapiens, UniProt Q99583, residues 220-300)
Method: protein-binding microarray
Molecule type: double-stranded DNA, one strand shown
Medium: in vitro
Tested at: not given
Notes: k-mer, scored over probes, only values ≥0.25
Reading: higher = stronger binding
Residues (chain): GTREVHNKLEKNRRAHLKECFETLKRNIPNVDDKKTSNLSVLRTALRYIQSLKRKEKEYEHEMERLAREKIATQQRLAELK
The E-score of `CATGTCGC` is reported as 0.328.
The E-score of `CCCACCCG` is reported as 0.333.
`CATGAGGC` gave an E-score of 0.363.
The E-score of `ACGAGGCA` is reported as 0.313.
The E-score of `CCAACGAG` is reported as 0.298.
`AAACGTGC` has an E-score of 0.415.

Sample 3
Target: Fragile X messenger ribonucleoprotein 1, C-terminal low-complexity region (Fmr1, Mus musculus, UniProt P35922)
Method: RNA Bind-n-Seq
Molecule type: RNA
Medium: in vitro
Tested at: 200 nM
Notes: whole 134-nt RNA, ends assumed
Together with: 150 mM LiCl
Relative to: input library
Reading: higher = stronger binding
All molecules: 7-deaza-guanosine replaces G
`GGGAGUUCUACAGUCCGACGAUCUGGGAGGUGGAUUUUGAUUAUUUUUUUAGCUCAUUUCCAGGGGUGGGAAUUUUUUUUUAAUAUGUGUCAUGAAUAAAGUUGUUUUUGAAAUGGAAUUCUCGGGUGUCAAGG` has a log2 enrichment of -0.647.
With `GGGAGUUCUACAGUCCGACGAUCUGGGAGGUGGAUUUUGUUUAUUUUUUUAGCUCAUUUCGAGGGGUGGGAAUUUUUUUUUAAUAUGUGUCAUGAAUAAAGUUGUUUUUGAAAUGGAAUUCUCGGGUGUCAAGG` the log2 enrichment was 0.852.
For `GGGAGUUCUACAGUCCGACGAUCAAGUCCUGUGCUACACAUCGUAUGUACCGAAUCGGUGGUUUUUUUGGAAAAAAAGGAAAGUAUUAUGUUACGCCGUUCGGAUCUGCACUUUGGAAUUCUCGGGUGUCAAGG`, the log2 enrichment was -2.08.
For `GGGAGUUCUACAGUCCGACGAUCUGUCAUGGAUUCAAGUUAUUAAAAGCAUAAGUUUGGAAGACAGGCUUGCCGAAAUUGAGGACAUGAUUAAAAUUGCAGUGAAGUUUGAAAUGGAAUUCUCGGGUGUCAAGG`, the log2 enrichment was -4.51.

Mixed results
The fold induction of `PhoQ, residues 284 288 289 292 302 303 QWGLFV` is reported as 14.7 (PhoP, residues 12 14 15 18 19 LYFRQ (Escherichia coli, UniProt P23836); Sort-seq, measured: YFP reporter; E. coli; PhoQ-PhoP variant library, together with: 10 µM Mg2+; relative to: high Mg2+ state, higher = stronger signaling).
